Experimental data collected from several papers.
Numbers after ± are the reported error.
Organism: Trypanosoma cruzi

`O=c1cc[s+]([O-])c2ccc(F)cc12` (racemic) has an EC50 of 102 µM (intracellular amastigote growth; U-937, Tulahuen, β-galactosidase transfected; 72 h).
With `CCC(=O)C[C@@H](O)C[C@@H](C)C[C@H](NC(=O)[C@@H]1C[C@H](C)CN1C(=O)/C=C/[C@@H](C)CC)C(=O)N[C@H](C(=O)NC(C)(C)C(=O)N[C@@H](CC(C)C)C(=O)N[C@@H](CC(C)C)C(=O)NC(C)(C)C(=O)NC(C)(C)C(=O)NCCC(=O)N[C@@H](C)CN(C)C)[C@H](O)C(C)C` the EC50 was 0.0071 ± 0.0016 µM (amastigote replication, high-content imaging; C2C12, CA-I/72; 72 h).
The EC50 of `CNC(=O)c1c(F)cccc1Nc1nc(Nc2cc3c(cc2OC)CCN3C(=O)CN(C)C)nc2[nH]ccc12` is reported as 10 µM (parasite growth; TULAHUEN; intracellular, amastigote).
For `Clc1ccc(C(c2ccc(Cl)cc2)n2cc[n+](CC(OCc3ccc(Cl)cc3Cl)c3ccc(Cl)cc3Cl)c2)cc1` (centres unmarked), the EC50 was 2 µM (U-2 OS host cells, Y; 72 h, intracellular amastigotes, with: FBS 10%).
The EC50 of `Cc1ccc2nc(-c3ccccc3)c(CNc3cccc(C(F)(F)F)c3)n2c1` is reported as over 20 µM (3T3 host cells, Tulahuen beta-galactosidase; 6 days).
With `O=c1cc[s+]([O-])c2ccccc12` (racemic) the EC50 was 112 µM (intracellular amastigote growth; U-937, Tulahuen, β-galactosidase transfected; 72 h).
For `CCOC(=O)c1c(C)oc2nc(N3CCN(c4ccccc4)CC3)ccc12`, the EC50 was 3.4 µM (3T3 host cells, Tulahuen beta-galactosidase; 6 days).
With `O=c1cc[s+]([O-])c2ccc(Cl)cc12` (single isomer, unassigned; (-)) the EC50 was 94 µM (intracellular amastigote growth; U-937, Tulahuen, β-galactosidase transfected; 72 h).
With `Cc1nc(C)c(C(=O)Nc2ccc(F)c(-c3nc4ncc(-c5ccccn5)cn4n3)c2)o1` the EC50 was 0.13 µM (ubiquitylated protein accumulation; epimastigotes).
The EC50 of `CCOC(=O)c1csc(NN=Cc2ccc(Cl)cc2)n1` is reported as 24.9 µM (parasite growth; 24 h, trypomastigote).
`Cc1ccc2nc(-c3ccc(F)c(F)c3)c(CN3CCN(CCc4cccnc4)CC3)n2c1` has an EC50 of 1.8 µM (3T3 host cells, Tulahuen beta-galactosidase; 6 days).
With `CCCCCCCCCCCCCCCCn1cc[n+](Cc2ccccc2)c1C` the EC50 was 0.6 µM (parasite growth, imaging; U2OS; 72 h, intracellular, amastigote).
`Fc1ccc(-c2cn3ccccc3n2)cc1F` has an EC50 of over 20 µM (3T3 host cells, Tulahuen beta-galactosidase; 6 days).
For `CCCCCCCCCC1=CC(=O)c2ccccc2S1(=O)=O`, the EC50 was 249 µM (intracellular amastigote growth; U-937, Tulahuen, β-galactosidase transfected; 72 h).

Excerpt of the above:
`Fc1ccc(-c2cn3ccccc3n2)cc1F` has an EC50 of over 20 µM (3T3 host cells, Tulahuen beta-galactosidase; 6 days).
